Published values pooled from the literature.
Parts stem from different laboratories: compare values within a part only.

Series 1
Target: Interferon regulatory factor 7, full length, phosphomimetic (IRF7, Homo sapiens, UniProt Q92985, residues 1-503, S471D/S472D/S475D/S476D/S477D/S483D/S484D/S487D)
Technique: protein-binding microarray
Form: double-stranded DNA, one strand shown
Medium: in vitro
Tested at: 2200 nM top
Setting: 60-bp whole probe
Added: salmon DNA 0.4 mg/ml
Baseline: random background probes
Reading: higher = stronger binding
Constant ends, left off below: GCCTAGCAC … GTCTTGATTCGCTTGACGCTGCTG
Target sequence (chain): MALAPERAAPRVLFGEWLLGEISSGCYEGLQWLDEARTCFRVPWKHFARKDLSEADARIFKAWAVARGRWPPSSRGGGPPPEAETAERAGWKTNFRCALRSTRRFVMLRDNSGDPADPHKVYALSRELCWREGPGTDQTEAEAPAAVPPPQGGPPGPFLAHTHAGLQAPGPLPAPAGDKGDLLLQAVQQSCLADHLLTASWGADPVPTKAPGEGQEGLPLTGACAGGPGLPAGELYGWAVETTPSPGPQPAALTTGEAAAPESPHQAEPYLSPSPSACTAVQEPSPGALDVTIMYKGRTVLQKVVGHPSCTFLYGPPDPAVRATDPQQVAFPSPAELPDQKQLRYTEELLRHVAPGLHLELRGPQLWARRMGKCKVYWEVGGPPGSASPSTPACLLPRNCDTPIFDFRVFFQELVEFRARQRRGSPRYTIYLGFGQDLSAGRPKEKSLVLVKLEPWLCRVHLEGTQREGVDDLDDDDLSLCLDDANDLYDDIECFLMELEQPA
| Sequence | fitted relative affinity [z-score] |
| --- | --- |
| TCAACTTTCTATGTCTGACTGTGCTAG | 2.57 |
| GATGGTCTCGGTTTCGGGACGTGCTAG | 4.21 |
| TCAATTTTTTTTATTTAACTGTGCTAG | 0.722 |
| GACGGTTTCGTTCTCCTGACGTGCTAG | 7.86 |
| TCAGAACTGGGGTATCGATTAGTGCTA | 0.12 |
| TTAGATTTCGGGTTTCGTTTAGTGCTA | 7.02 |
| GTGGAAATCAGTATGTTCCCGTGCTAG | 0.839 |
| TCAAGTTTTCCTTCATGACTGTGCTAG | 2.09 |
| TAGAAATTTTTTTTCTAACTGTGCTAG | -0.401 |
| TTAAGTCTCCTTTTCCTTTAGTGCTAG | 2.26 |
| TTAGGTATGCTTCTCCTTTAGTGCTAG | 1.07 |
| GACGGACAGGGGTTTCGGGACGTGCTA | 0.574 |
| GTCGGTATCGGGTATCGGGACGTGCTA | 0.483 |
| TCAGTTTTGAGTTTTCCACTGTGCTAG | 2.46 |
| GACGGTATCGGGTATCTGGACGTGCTA | 0.0505 |
| GACGAACTGAGTATCGAGCCGTGCTAG | -0.377 |
| TTAGAATTCAGTTCCGATTAGTGCTAG | 0.607 |
| TTCCCTCTCCCCTCTTGTGCTGTGCTA | 1.92 |
| TTAGGTATCGGTTTCGGTCAGTGCTAG | 4.56 |
| TAATATCTAAGATTCTAGCCGTGCTAG | -0.585 |
| TTAGGTTCCATTTTCCTTTAGTGCTAG | 3.6 |
| AACGGTATCGGGACTGGGGACGTGCTA | -0.29 |
| TTATGTATCGGTCTCGGTTAGTGCTAG | 1.45 |
| GGCGGTCTCCTTTTCCTGACGTGCTAG | 0.748 |
| AGTTGTTTTAAATTCTAATTGTGCTAG | 0.258 |

Series 2
Target: Histone acetyltransferase KAT6A, both winged helices, GST fusion (KAT6A, Homo sapiens, UniProt Q92794, residues 1-181)
Technique: protein binding microarray
Form: double-stranded DNA, one strand shown
Medium: in vitro
Tested at: not given
Setting: 8-mer, flanks averaged, mean of 2 arrays, mostly near background
Baseline: not given
Reading: higher = stronger binding
Construct (chain): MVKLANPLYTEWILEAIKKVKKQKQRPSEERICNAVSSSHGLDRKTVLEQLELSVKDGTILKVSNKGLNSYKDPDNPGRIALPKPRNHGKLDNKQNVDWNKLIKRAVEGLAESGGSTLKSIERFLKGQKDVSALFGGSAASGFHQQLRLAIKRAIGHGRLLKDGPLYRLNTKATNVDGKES
| Sequence | E-score |
| --- | --- |
| GTTGTCAA | -0.167 |
| ATGCATTG | -0.187 |
| CCAGACGA | -0.0821 |
| TGATTGCA | -0.173 |
| ACAAGTCG | -0.0872 |
| AAGAATTA | -0.0872 |
| TAAGGGAA | -0.2 |
| ACCGAAGT | -0.043 |
| AAAAAGAC | -0.105 |
| ATCATTCA | 0.0792 |
| GTAAAAGA | -0.0736 |
| AGAGTGTG | -0.187 |
| CTCCCATA | -0.216 |
| GGTATCAA | -0.00568 |
| ACTATCAG | -0.184 |
| AAGTAAGA | -0.0261 |
| TATATAAA | -0.0224 |
| AATCACCG | 0.166 |
| ATTTGAGA | -0.035 |
| CCCTACCG | 0.00987 |
| CGTAATAA | 0.0656 |
| AGTCGAAA | -0.205 |
| AAGGGCAT | -0.3 |
| CCAGTGAA | -0.0921 |
| CGAGAGTC | -0.128 |

Series 3
Target: Prothrombin, mature alpha-thrombin (F2, Homo sapiens, UniProt P00734)
Technique: aptamer microarray, sandwich
Form: DNA with 2'F-ANA
Medium: in vitro
Tested at: 200 nM
Setting: whole 15-mer aptamer, many near background
Added: Cy3 exosite-II aptamer, 400 nM
Reading: higher = stronger binding
Sequence: GGTTGGTGTGGTTGG
| Modification | mean fluorescence intensity |
| --- | --- |
| 2'F-ANA at 1 2 3 4 6 10 14 | 45.9 a.u. |
| 2'F-ANA at 3 5 6 15 | 109 a.u. |
| 2'F-ANA at 2 3 6 7 8 9 11 12 13 15 | 701 a.u. |
| 2'F-ANA at 4 6 10 11 12 14 | 58.6 a.u. |
| 2'F-ANA at 1 5 7 10 11 12 13 | 45.4 a.u. |
| 2'F-ANA at 1 2 7 8 10 11 | 52.2 a.u. |
| 2'F-ANA at 1 3 4 6 7 9 10 13 | 56.9 a.u. |
| 2'F-ANA at 2 3 5 9 10 11 13 15 | 49.6 a.u. |
| 2'F-ANA at 4 8 10 11 12 13 15 | 79.1 a.u. |
| 2'F-ANA at 1 3 4 6 9 10 12 | 82.8 a.u. |
| 2'F-ANA at 3 4 5 6 7 8 9 13 15 | 58.4 a.u. |
| 2'F-ANA at 1 3 4 7 11 12 15 | 300 a.u. |
| 2'F-ANA at 4 6 11 12 15 | 338 a.u. |
| 2'F-ANA at 3 6 7 8 10 11 12 15 | 508 a.u. |
| 2'F-ANA at 1 2 3 4 5 6 7 10 11 12 13 | 49.5 a.u. |
| 2'F-ANA at 1 4 5 12 13 14 | 44.9 a.u. |
| 2'F-ANA at 1 2 4 6 8 13 14 | 48.8 a.u. |
| 2'F-ANA at 6 8 11 12 13 14 15 | 180 a.u. |
| 2'F-ANA at 1 3 6 7 8 13 14 15 | 141 a.u. |
| 2'F-ANA at 3 4 5 6 8 11 13 15 | 119 a.u. |
| 2'F-ANA at 3 5 14 15 | 54.1 a.u. |
| 2'F-ANA at 5 7 15 | 77.9 a.u. |
| 2'F-ANA at 1 4 7 8 10 11 | 50.1 a.u. |
| 2'F-ANA at 1 2 4 5 8 10 14 | 48.9 a.u. |
| 2'F-ANA at 2 3 4 5 6 7 13 14 | 48.8 a.u. |

Series 4
Target: RNA binding protein fox-1 homolog 2, RRM domain, GST-SBP tag (RBFOX2, Homo sapiens, UniProt O43251-10, residues 100-194)
Technique: RNA Bind-n-Seq
Form: RNA
Medium: in vitro
Tested at: 365 nM
Setting: natural RNA segment, single round, ends assumed
Baseline: no-protein control
Reading: higher = stronger binding
Constant ends, left off below: GGGAGUUCUACAGUCCGACGAUC … UGGAAUUCUCGGGUGCCAA
Target sequence (chain): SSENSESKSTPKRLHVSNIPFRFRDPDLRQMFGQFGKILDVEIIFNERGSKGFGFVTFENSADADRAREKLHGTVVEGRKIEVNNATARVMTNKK
| Sequence | RBNS enrichment (R) |
| --- | --- |
| CUUGCUUGAAAUCUUGCUGAAAUGUUCUCAUUUCCUGUUUGCUGUAUGGGCUCGGGUGGGAUGUUUGUUGGCUCUGUUGUGUUUAUUCACCAAUUUGUACAUUAUUUGUU | 5.71 |
| GGGGGACAAGCGUGGGCACAAUUUCCCCACCAAGACACCCUGAUCUUCAGGCGGGUCUCAGGAGCUUCUAAAAAUCCGCAUGGCUCUCCUGAGAGUGGACAGAGGAGAGG | 3.34 |
| UGUUUUCUGCCUUCCCACCUUCUCCCCCAGUGUUCGGAUGAAUGUUCCUGGCUGUCUCUGUUCCCUUGCUGUGGGGCUGUGUCCCUCCUUUGGGAGCAUGUGUGGCUAGG | 0.853 |
| GAUUCUUUGACUAGUGAAAAUCUCAUAAAAUUUAAAUACGUGUGAGUAAAACACAUGCCUGAACACACCAGGUCCAUUUGCUUAUUAUUGUCUGUGGUUGAGUUUACAUU | 0.981 |
| AAGCUUCACCAACCAAAUCAUCCUUGAGGAUGCUGCCAAAAGGCCCCCAGGACUCCCGCCCACACUCCUUUGGGCUGCUGCCUGCCUGGCUAGCUCUGUCCAGAUAGGAC | 0.447 |
| GCUGAAGUGGCCACCAGGGGUCAGCAGUGCUCCAGUUGCUGGGCUUAAAGCUUCCUGGUGCCUGUCUGCCAGGUCAUGGAGGAUUCCCCAAUCUGGCAUCCCCACGAUGC | 0.212 |
| GCAACUGGUACUCGCUUCUUGGCUGCUGCUUCUGUUGUGAAAAGACGAGCCCAUGUUUCUGCAUGGAUUUCCCAUGGAAGUCCUGUCCUGCUACAGAGGGGAAGAAAGUG | 0.311 |
| GCUAUUUCAAAUUUGGUUUUGUUACAUUAAGUUGACUAUCAAAUACACAAAAGAUUUUUUUUGCAUAUGUUUCCUUUGUUUAAAACCAGUUUCAUAAUUGGUUAUAUAUA | 0.934 |
| AUAAUUCUAAAUCCCUCGAUAUUUUUAAAGAUCUGUAAGUAACUUCACAUUAAAAAAUGAAAUAUUUUUUAAUUUAAAGCUUACUCUGUCCAUUUAUCCACAGGAAAGUG | 0.784 |
| GGAGCCCAAGAAGAGCUAGACUGACCCUGUAAACUUAGGGUUCCAUUUGGUCUUAACACUAUGGGCUUUGUUUGCUCUGUGCUGCUGUGCCACUGCUGUUGUCUGCUCAU | 0.368 |
| UCAGCACCUCUGAGGUGUGCAUUAGCCACUUAUAGCAGCAGUCUGUACUCUUUCAAGUACGCAAGCUUUGACUUCACUACUUGCUGUAGCCUGUCCCCACUGUCUAUCCA | 0.3 |
| UCUCCUCCCUUUCAGCAUCCUUUGGGGAACCUCCAGCCCAAGGCACUGUUAGGCUUGGGCAUUAGCCUGGCCCAAGAGAUGCCACUGGGGACUAGAGGACAGAAGGGGAC | 0.529 |

Excerpt of the above (series 1):
| Sequence | fitted relative affinity [z-score] |
| --- | --- |
| TTCCCTCTCCCCTCTTGTGCTGTGCTA | 1.92 |
| TCAGAACTGGGGTATCGATTAGTGCTA | 0.12 |
| TTAGGTTCCATTTTCCTTTAGTGCTAG | 3.6 |
| AACGGTATCGGGACTGGGGACGTGCTA | -0.29 |
| GACGGTATCGGGTATCTGGACGTGCTA | 0.0505 |
| GTGGAAATCAGTATGTTCCCGTGCTAG | 0.839 |
| GGCGGTCTCCTTTTCCTGACGTGCTAG | 0.748 |
| TTAGGTATGCTTCTCCTTTAGTGCTAG | 1.07 |
| TCAAGTTTTCCTTCATGACTGTGCTAG | 2.09 |
| GATGGTCTCGGTTTCGGGACGTGCTAG | 4.21 |
| TAATATCTAAGATTCTAGCCGTGCTAG | -0.585 |
| AGTTGTTTTAAATTCTAATTGTGCTAG | 0.258 |
